Experimental data from different studies.
Each line is one published result; not all experiments were run side by side. Values joined by “and” are separate records of one study, mostly repeats; a detail may differ. ± marks the error that the study gave.
Sequence of UniProt Q92630 (whole entry, looked up): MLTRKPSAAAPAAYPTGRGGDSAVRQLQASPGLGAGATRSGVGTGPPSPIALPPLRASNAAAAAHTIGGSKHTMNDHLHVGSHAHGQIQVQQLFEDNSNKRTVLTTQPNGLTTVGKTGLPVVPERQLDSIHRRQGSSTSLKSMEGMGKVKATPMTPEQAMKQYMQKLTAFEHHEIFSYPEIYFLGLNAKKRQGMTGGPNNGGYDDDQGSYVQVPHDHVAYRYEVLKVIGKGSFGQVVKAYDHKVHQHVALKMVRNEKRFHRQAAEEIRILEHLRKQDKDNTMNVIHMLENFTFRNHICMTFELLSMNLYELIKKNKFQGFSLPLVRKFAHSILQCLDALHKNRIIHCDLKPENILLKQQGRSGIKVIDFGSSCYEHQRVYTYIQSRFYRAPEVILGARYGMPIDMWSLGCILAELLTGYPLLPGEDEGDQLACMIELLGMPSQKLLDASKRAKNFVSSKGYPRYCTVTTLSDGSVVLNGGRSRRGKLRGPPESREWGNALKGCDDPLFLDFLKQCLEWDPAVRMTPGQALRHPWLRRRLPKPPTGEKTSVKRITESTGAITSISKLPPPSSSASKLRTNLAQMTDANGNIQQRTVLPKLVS
Sequence of UniProt O15075 (whole entry, looked up): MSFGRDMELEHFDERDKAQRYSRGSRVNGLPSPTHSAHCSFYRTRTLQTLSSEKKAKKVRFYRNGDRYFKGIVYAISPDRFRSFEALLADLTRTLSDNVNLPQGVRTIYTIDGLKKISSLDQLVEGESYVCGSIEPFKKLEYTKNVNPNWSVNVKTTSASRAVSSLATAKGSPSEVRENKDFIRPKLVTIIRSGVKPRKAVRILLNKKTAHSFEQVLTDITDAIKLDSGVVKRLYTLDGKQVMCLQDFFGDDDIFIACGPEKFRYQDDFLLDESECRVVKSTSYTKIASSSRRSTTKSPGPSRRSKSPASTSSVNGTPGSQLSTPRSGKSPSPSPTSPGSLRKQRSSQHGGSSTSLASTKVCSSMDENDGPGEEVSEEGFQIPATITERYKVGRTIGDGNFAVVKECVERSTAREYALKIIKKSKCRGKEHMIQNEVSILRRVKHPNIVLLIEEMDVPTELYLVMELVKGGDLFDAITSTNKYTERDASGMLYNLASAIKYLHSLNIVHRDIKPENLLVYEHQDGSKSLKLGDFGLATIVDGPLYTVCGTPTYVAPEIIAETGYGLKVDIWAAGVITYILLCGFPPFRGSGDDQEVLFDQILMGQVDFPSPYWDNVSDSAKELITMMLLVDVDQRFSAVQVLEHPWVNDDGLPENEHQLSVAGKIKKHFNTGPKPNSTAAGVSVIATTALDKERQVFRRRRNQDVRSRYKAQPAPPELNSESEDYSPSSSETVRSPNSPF
Sequence of UniProt Q80YA3 (whole entry, looked up): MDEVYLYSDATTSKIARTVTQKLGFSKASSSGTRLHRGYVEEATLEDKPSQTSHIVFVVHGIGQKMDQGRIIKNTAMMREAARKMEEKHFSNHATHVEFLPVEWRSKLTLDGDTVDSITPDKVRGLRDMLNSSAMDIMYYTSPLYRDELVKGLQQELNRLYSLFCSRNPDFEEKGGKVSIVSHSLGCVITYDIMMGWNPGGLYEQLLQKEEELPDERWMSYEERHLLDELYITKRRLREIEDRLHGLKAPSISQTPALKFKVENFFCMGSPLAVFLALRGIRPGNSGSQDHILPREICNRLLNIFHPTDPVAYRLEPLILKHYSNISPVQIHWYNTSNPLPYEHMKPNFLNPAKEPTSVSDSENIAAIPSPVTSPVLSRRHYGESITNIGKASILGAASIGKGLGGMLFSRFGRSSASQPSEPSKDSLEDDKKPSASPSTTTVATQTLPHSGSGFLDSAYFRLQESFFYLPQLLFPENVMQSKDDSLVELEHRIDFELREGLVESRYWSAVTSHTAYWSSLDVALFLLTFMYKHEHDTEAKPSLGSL
Sequence of UniProt Q9Y5N1 (whole entry, looked up): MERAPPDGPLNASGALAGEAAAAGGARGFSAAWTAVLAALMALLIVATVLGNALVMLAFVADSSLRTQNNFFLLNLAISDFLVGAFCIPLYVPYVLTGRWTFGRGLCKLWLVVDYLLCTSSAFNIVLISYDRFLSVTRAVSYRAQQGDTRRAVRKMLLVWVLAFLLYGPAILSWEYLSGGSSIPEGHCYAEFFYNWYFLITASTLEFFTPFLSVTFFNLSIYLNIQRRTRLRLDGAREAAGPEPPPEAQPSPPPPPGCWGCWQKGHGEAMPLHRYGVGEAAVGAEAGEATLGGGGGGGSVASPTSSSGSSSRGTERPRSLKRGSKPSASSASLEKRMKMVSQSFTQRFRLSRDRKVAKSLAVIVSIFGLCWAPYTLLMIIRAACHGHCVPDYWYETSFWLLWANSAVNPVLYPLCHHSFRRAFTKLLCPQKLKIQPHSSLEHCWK
Sequence of UniProt P47898 (whole entry, looked up): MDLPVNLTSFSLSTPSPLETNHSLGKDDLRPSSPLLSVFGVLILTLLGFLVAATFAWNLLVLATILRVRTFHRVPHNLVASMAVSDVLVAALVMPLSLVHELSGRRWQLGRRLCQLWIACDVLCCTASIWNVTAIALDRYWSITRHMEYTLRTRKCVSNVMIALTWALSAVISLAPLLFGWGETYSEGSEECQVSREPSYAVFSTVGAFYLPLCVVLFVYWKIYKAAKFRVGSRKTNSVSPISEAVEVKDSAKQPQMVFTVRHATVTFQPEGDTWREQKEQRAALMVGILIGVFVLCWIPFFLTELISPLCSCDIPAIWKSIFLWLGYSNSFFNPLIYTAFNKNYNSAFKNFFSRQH
Sequence of UniProt P21554 (whole entry, unmodified, looked up): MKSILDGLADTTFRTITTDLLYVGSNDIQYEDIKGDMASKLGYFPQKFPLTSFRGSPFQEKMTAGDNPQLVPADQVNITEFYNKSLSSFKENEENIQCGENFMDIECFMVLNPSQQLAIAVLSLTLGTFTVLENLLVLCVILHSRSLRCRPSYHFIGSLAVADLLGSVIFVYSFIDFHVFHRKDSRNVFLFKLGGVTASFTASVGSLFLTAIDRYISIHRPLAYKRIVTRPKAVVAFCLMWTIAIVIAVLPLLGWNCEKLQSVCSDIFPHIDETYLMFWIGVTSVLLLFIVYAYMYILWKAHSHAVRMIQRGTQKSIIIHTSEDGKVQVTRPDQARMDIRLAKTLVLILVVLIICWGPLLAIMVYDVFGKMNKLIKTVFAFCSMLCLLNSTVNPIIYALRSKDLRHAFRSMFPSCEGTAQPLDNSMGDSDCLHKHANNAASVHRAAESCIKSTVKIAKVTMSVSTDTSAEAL
Sequence of UniProt O75716 (whole entry, looked up): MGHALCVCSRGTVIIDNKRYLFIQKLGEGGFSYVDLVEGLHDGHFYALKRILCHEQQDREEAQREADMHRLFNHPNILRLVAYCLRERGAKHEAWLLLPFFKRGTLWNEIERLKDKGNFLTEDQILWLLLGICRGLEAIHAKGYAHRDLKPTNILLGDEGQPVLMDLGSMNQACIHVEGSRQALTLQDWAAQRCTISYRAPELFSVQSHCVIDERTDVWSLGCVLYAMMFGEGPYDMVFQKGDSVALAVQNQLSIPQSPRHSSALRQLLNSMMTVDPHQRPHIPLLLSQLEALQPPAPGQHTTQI
Sequence of UniProt P80192 (whole entry, looked up): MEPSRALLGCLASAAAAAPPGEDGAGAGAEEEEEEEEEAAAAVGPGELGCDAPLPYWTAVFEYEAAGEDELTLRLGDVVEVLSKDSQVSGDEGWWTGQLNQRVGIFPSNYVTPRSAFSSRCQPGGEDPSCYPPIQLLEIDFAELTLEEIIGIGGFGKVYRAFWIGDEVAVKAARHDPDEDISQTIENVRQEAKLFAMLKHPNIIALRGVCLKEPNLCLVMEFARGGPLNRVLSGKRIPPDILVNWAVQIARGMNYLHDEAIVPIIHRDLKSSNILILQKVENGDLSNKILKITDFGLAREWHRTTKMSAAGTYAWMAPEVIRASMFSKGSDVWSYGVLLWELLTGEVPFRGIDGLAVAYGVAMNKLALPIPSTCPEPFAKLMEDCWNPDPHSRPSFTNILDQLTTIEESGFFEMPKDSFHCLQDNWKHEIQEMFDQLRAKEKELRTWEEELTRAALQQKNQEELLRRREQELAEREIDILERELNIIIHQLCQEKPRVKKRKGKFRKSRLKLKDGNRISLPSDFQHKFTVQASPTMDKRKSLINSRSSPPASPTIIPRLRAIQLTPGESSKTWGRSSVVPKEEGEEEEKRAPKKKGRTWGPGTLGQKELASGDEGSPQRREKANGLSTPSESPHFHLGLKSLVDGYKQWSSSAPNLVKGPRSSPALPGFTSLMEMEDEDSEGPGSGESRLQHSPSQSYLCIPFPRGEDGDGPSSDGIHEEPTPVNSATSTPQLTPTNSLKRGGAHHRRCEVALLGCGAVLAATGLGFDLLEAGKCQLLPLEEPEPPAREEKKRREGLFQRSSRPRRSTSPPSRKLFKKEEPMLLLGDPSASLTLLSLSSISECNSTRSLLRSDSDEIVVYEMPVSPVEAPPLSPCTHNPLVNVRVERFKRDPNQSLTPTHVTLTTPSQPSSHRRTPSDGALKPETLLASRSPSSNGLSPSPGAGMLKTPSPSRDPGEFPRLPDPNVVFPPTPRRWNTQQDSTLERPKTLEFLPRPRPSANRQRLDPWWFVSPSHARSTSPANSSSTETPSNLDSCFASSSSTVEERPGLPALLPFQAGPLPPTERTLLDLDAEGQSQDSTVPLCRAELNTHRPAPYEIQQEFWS

Structure (SMILES) | tested on | assay | system | conditions | scale | quantity | value
CN(C)[C@H]1C[C@@]23CC[C@@]4(O2)C(=CC[C@]2(C)[C@@H](c5ccc6ccncc6c5)CC[C@H]24)C=C3[C@@H](O)[C@@H]1O | STK16 (Homo sapiens, UniProt O75716) | ATP probe labelling, inhibitor, KiNativ profiling | – | 0.1 µM | – | inhibition | -5%
CC(C)(C)C(=O)OCOP(=O)(OCOC(=O)C(C)(C)C)C1CCCN(O)C1=O (stereo not drawn) | PC-3 | – | – | – | – | TGI | > 100 µM
COc1ccccc1-c1n[nH]c2nc(NC3CCN(C(=O)Cc4ccc(F)cc4F)CC3)ncc12 | – | bead binding, competition bead pull-down, item: LINJ.30.1440 | Leishmania donovani extract | 10 µM | relative to: vehicle | relative abundance | 1.14
Cc1cc(C(=O)Nc2nc3cccc(C)c3n2[C@H]2CCCCN(C(=O)/C=C/CN(C)C)C2)ccn1 | Trypanosoma brucei | propidium iodide flow cytometry | bloodstream form | concentration not given, 8 h | – | multinucleated cells | 9.99%
COc1ccccc1-c1n[nH]c2nc(N[C@H]3CC[C@H](NS(=O)(=O)CC(C)C)CC3)ncc12 | – | bead binding, competition bead pull-down, item: LINJ.22.0180 | Leishmania donovani extract | 10 µM | relative to: vehicle | relative abundance | 1.73
Nc1ccc(/C=C/C(=O)N2CCc3c(oc4c(-c5ccc(F)cc5)cc(-c5ccc(C(=O)N6CCC(F)(F)CC6)cn5)cc34)C2)cn1 | DCLK1 (Homo sapiens, UniProt O15075) | binding, competition with immobilised ligand | – | 1 µM | – | remaining binding | 93%
CC(C)CC(O)(CC(C)C)c1cn(C(=O)N2CCCC2)nn1 | Phospholipase DDHD1 (Ddhd1, Mus musculus, UniProt Q80YA3) | probe labelling, inhibitor, item: Ddhd1 | mouse, brain | i.p., 0.8 mg/kg, 4 h, protein level | relative to: treated over vehicle mice, lower = stronger inhibition | activity ratio-of-ratios | 1.27
CCN(Cc1ccc2nc(C)[nH]c(=O)c2c1)c1ccc(C(=O)NC(C(=O)O)C(C)C)cc1 (stereo not drawn) | Mycobacterium tuberculosis | bacterial growth, inhibitor | H37Rv pptT conditional knockdown | with: anhydrotetracycline added | – | MIC50 | > 100 µM
CCOC(=O)[C@@H]1Cc2c(cc([N+](=O)[O-])cc2[N+](=O)[O-])[C@H](O)[C@]12C(=O)Nc1ccc(Br)cc12 | Tyrosine-protein kinase ABL1, phosphorylated (ABL1, Homo sapiens, UniProt P00519, T315I) | binding, competition with immobilised ligand | – | 0.1 µM | – | remaining binding | 84%
CC[C@H](C)[C@H](NC(=O)[C@H](CO)NC(=O)[C@H](Cc1ccc(O)cc1)NC(=O)[C@H](Cc1ccc(O)cc1)NC(=O)[C@H](CC(N)=O)NC(=O)CNC(=O)[C@H](CO)NC(=O)[C@H](Cc1ccc(O)cc1)NC(=O)[C@H](CO)NC(=O)[C@H](CO)NC(=O)[C@H](CC(N)=O)NC(=O)COCCOCCNC(=O)CN1CCN(CC(=O)O)CCN(CC(=O)O)CCN(CC(=O)O)CC1)C(=O)N[C@@H](CC(C)C)C(N)=O [copper-64 labelled] | – | dynamic PET | KPC mouse Ptf1a-CreER tdTomato, pancreas | intravenous, dose not given, 1.6 min, 84 d after tamoxifen | – | tissue uptake | 15 %ID/mL
O=C1NC2(CC2)COc2ncc(F)cc2[C@H]2COCCN2c2ccn3ncc1c3n2 | – | – | Sprague-Dawley rat, female, blood | oral, 5 mg/kg/day, end of recovery, 4-week repeated-dose toxicity | relative to: red blood cells | reticulocytes | 1.6 ± 0.44%
Cc1sc2c(c1C)C(c1ccc(Cl)cc1)=NC(CC(=O)OC(C)(C)C)c1nnc(C)n1-2 (stereo not drawn) | HTR5A (Homo sapiens, UniProt P47898) | ligand displacement, radioligand | – | 1 µM | – | remaining binding | 107%
N[C@H](C(=O)N1CCCC1)C1CCN(c2nccc3c(-c4ncc(Cl)cc4Cl)cccc23)CC1 | HRH3 (Homo sapiens, UniProt Q9Y5N1) | functional response, agonist | – | 10 µM | – | response | 33%
Cc1ccsc1C(=O)C1CCCN(Cc2cnc(N3CCCC3)s2)C1 (stereo not drawn) | Trypanosoma cruzi | reporter mRNA translation, inhibitor, item: Renilla luciferase mRNA | cell-free extract | concentration not given, test 2 | relative to: positive over negative control | translation activity | 130% and 108%
O=C1NC(=O)c2c1c1cc(F)c[n+]3c1c1c2c2cc(O)ccc2[n]1[Ru-4]312([N]=C=S)[S+]3CC[S+]1CC[S+]2CC3 (stereo not drawn) | DYRK2 (Homo sapiens, UniProt Q92630) | enzyme activity | – | 100 nM, human enzyme, with: 10 µM ATP | relative to: untreated | remaining activity | 110%
Cc1ccc2c(C(C[N+](=O)[O-])c3cccs3)c(-c3ccccc3)[nH]c2c1 (stereo not drawn) | CNR1 (Homo sapiens, UniProt P21554, I245F) | β-arrestin recruitment, agonist, luciferase | – | – | – | Emax | 107%
CS(C)(=O)=Nc1ccc(-c2ccc(-c3nc4cc(O[C@@H]5CO[C@H]6[C@@H]5OC[C@H]6O)[nH]c4cc3F)cc2)cc1 | Cyclin-dependent kinase 2, with cyclin E (CDK2, Homo sapiens, UniProt P24941) | enzyme activity, inhibitor | – | 10 µM | – | inhibition | -10%
CC(C)[C@H]1NC(=O)C[C@H]2/C=C/CCSSC[C@@H](NC1=O)C(=O)N[C@H](Cc1cccc3ccccc13)C(=O)NCC(=O)O2 | MAP3K9 (Homo sapiens, UniProt P80192) | enzyme activity, inhibitor | – | 10 µM | – | inhibition | 7.5%

Repeated from above:
Structure (SMILES) | tested on | assay | system | conditions | scale | quantity | value
Nc1ccc(/C=C/C(=O)N2CCc3c(oc4c(-c5ccc(F)cc5)cc(-c5ccc(C(=O)N6CCC(F)(F)CC6)cn5)cc34)C2)cn1 | DCLK1 (Homo sapiens, UniProt O15075) | binding, competition with immobilised ligand | – | 1 µM | – | remaining binding | 93%
CC(C)CC(O)(CC(C)C)c1cn(C(=O)N2CCCC2)nn1 | Phospholipase DDHD1 (Ddhd1, Mus musculus, UniProt Q80YA3) | probe labelling, inhibitor, item: Ddhd1 | mouse, brain | i.p., 0.8 mg/kg, 4 h, protein level | relative to: treated over vehicle mice, lower = stronger inhibition | activity ratio-of-ratios | 1.27
